# Results from different studies.
# Values joined by “and” are separate records of one study, mostly repeats; a detail may differ. ± marks the error that the study gave.
Compound,test,system,setting,how to read,quantity,value
COc1ccnc(C(=O)O)c1O,,water/sediment,"whole system, geometric mean, no decline default",,DT50,1000 days
NC1(C(=O)N[C@@H](CCO)c2ccc(Cl)cc2)CCN(c2nc[nH]c3nccc2-3)CC1,,metastatic CRPC patients,"480 mg b.i.d., grade 3 to 4, treatment-related, together with: enzalutamide 160 mg daily",,incidence of Dyspepsia,0%
Cc1cccc(CNC(=O)c2cn(CCNC(=O)c3ccccc3Sc3c([N+](=O)[O-])ncn3C)c3cc4c(cc3c2=O)OC(F)(F)O4)n1,,"Sprague-Dawley rat, male, plasma","intravenous, 5 mg/kg of parent compound",,AUC(0-t),325 ± 8.26 ng·h/mL
OB1NN=Cc2ccccc21,"stability, UPLC-MS",diluted serum,"5 day, 37 °C",higher = more compound remaining,peak area,307000 a.u. and 306000 a.u. and 308000 a.u.
Cc1cc(NC2CCN(C(=O)OC3CCN(C(=O)/C=C/CN(C)C)C3)CC2)n2ncc(C(C)C)c2n1 (stereo not drawn),"Phase I dose escalation CTCAE v4.0, item: Headache",patients with advanced solid tumours,"dose not given, TIW dosing any grade",,patients with adverse event,9%
CN[C@@H](C)C(=O)N[C@H]1CN(S(=O)(=O)c2cccc(S(=O)(=O)N3CC[C@H]4CC[C@@H](C(=O)NC(c5ccccc5)c5ccccc5)N4C(=O)[C@@H](NC(=O)[C@H](C)NC)C3)c2)CC[C@H]2CC[C@@H](C(=O)NC(c3ccccc3)c3ccccc3)N2C1=O,"LC-MS/MS, noncompartmental","human, plasma","20 mg, cycle 1 day 1",,Vss,103 L
Cc1ccc(Sc2ccccc2N2CCNCC2)c(C)c1,item: thermal burn,healthy adult men,"oral, 10 mg daily, 12 days",,participants with TEAE,0%
C[C@@H](O)CCOC(=O)C[C@@H](C)O,,human,"oral drink, dose not given, 60 min post dose, mean",,heart rate,76 beats/min
Cc1ccc(C(=O)N(CCCN)C(c2nc3snc(C)c3c(=O)n2Cc2ccccc2)C(C)C)cc1 (stereo not drawn),,human patients,"intravenous, 7 mg/day",,grade ≥3 hypokalemia patients,0%
COc1cc(N2CCC(N3CCN(C)CC3)CC2)ccc1Nc1ncc(Cl)c(Nc2ccccc2P(C)(C)=O)n1,,"nude mice, NCI-H3122 xenograft","intraperitoneal, 10 mg/kg every other day, day 7",,body weight,23.9 g and 23.3 g and 24.8 g and 22.4 g and 25.1 g
Cc1cn([C@H]2C[C@H]([18F])[C@@H](CO)O2)c(=O)[nH]c1=O,PET/CT,"Sprague-Dawley rat, nasal cavity","intranasal, dose not given, 20 min",baseline: dose,fraction of dose remaining,~9%
CN1C[C@H](COc2nccc3c(NCc4ccco4)cc(Cl)nc23)OC1=O,,"rabbit NZW female, isolated Langendorff heart","3 µM, 15 min",,left ventricular end-diastolic pressure,6 mmHg
O=C(Nc1c2c(cc3c1CCC3)CCC2)NS(=O)(=O)/C=C/c1nccs1,,dog liver microsomes,"1 µM, 30 min, together with: NADPH",,metabolized fraction,2.62%
C=CCn1c(=O)c2cnc(Nc3ccc(N4CCN(C)CC4)cc3)nc2n1-c1ccc2c(n1)[C@@](O)(CC)CC2,,"A-427, female NOD/SCID mouse xenograft, plasma","oral, 80 mg/kg once daily",,Cmax,5100 ng/mL
Cc1ccc2nc(-c3ccccn3)c(CN(CC(C)C)c3cccc(C(F)(F)F)c3)n2c1,,"peritoneal macrophages, Swiss mice","5 days, 5% fetal calf serum",,CC50,31.6 µM
C[C@@H]1OC(=O)[C@H](Cc2ccccc2)[C@H]1O,aerobic dark soil incubation,clay soil,"20 °C, modelling endpoint",,DT50,0.35 days
CCn1cc(C(=O)N2CCOCC2)c(=O)c2cc(NC3Cc4ccccc4C3)cnc21,,"human, fasted","oral suspension, 2000 mg single dose, median",,Tmax,1.5 h
CC[C@H](C)CCCCC(=O)N[C@@H](CCN)C(=O)N[C@H](C(=O)N[C@@H](CCN)C(=O)N[C@H]1CCNC(=O)[C@H]([C@@H](C)O)NC(=O)[C@H](CCN)NC(=O)[C@H](CCN)NC(=O)[C@H](CC(C)C)NC(=O)[C@@H](Cc2ccccc2)NC(=O)[C@H](CCN)NC1=O)[C@@H](C)O,item: gastrointestinal disorders,long-term IHD patients,"intravenous, 0.75 mg/kg",,adverse event incidence,100%
COc1cccc(OC)c1-c1cc(C(=O)NC2(C(=O)O)C3CC4CC(C3)CC2C4)nn1-c1ccc(C(=O)N(C)CCCN(C)CCCN(C)C(=O)CN2CCN(CC(=O)[O-])CCN(CC(=O)[O-])CCN(CC(=O)[O-])CC2)cc1C(C)C.[177Lu+3] (stereo not drawn),,"mouse, HT-29 xenograft, lung",24 h post injection,,tissue uptake,0.23 %ID/g
CCc1c(C)nc(-c2ccc(Cl)s2)nc1Nc1ccc(CC(=O)O)cc1,,"mice, chronic ethanol plus binge","intraperitoneal, 0.3 mg/kg daily, ethanol diet 4 weeks, dosed last two",baseline: vehicle,serum creatinine,no effect
CNC(=O)c1ccc(-c2cnc3ncc(Cc4ccc5ncccc5c4)n3n2)cc1F,,human severe hepatic impairment,"oral, 200 mg single dose, adjusted geometric mean",,unbound AUC(0-t),323 ng·h/mL
Cc1c(-c2ccc(N3CCc4cccc(C(=O)Nc5nc6ccccc6s5)c4C3)nc2C(=O)O)cnn1CC12CC3(C)CC(C)(C1)CC(OCCNCC[C@H](O)CO)(C3)C2,,"beagle dog, male, anaesthetised","intravenous infusion, 0.01 mg/kg/min, 45 min",baseline: baseline,mean arterial pressure change,-1 mmHg
CNC(=O)c1ccc(-c2cnc3ncc(Cc4ccc5ncccc5c4)n3n2)cc1F,,Japanese patients,"oral, 400 mg, any grade",,γGT increased dose reduction/interruption,1%
COc1nnc2ccc(N3CCC(c4ccc(OCCN5CCN(C)C(=O)[C@H]5C)cc4)CC3)nn12,,"human, plasma","oral, 30 mg once daily, single dose, monotherapy",,AUClast,0.604 µM·h
Cc1ncsc1-c1ccc(CNC(=O)[C@@H]2C[C@@H](O)CN2C(=O)[C@@H](NC(=O)CCCCCCCCCC(=O)N2CCN(CC[C@H](NC(=O)C3(N)CCN(c4ncnc5[nH]ccc45)CC3)c3ccc(Cl)cc3)CC2)C(C)(C)C)cc1,,"mouse, tumour","intraperitoneal, 75 mg/kg once daily for 5 days, 2 h after last dose",,tumour concentration,~500 nM
O=C(Nc1cnccc1Cl)N1CCN(Cc2ccc3c(c2)OC(F)(F)O3)CC1,item: Ecchymosis,human healthy young men,"25 mg, multiple dose",,adverse event incidence,0%
CS(=N)(=O)c1ccc(C(F)(F)F)cc1 (stereo not drawn),,human liver microsomes,,baseline: hepatic blood flow,metabolic stability,< 23%
COc1ncc(-c2nc3c(n2C(C)C)[C@H](c2ccc(Cl)cc2)N(c2cc(Cl)cn(C)c2=O)C3=O)c(OC)n1,,"human patients, plasma","oral, 4 mg, cycle 1 day 1, low-dose",,median Tmax,2.5 h
CSc1ccccc1C(=O)NCCn1cc(C(=O)NCc2cccc(C)n2)c(=O)c2cc3c(cc21)OC(F)(F)O3,,"Sprague-Dawley rat, male, plasma","intramuscular, 10 mg/kg of parent compound",,AUC(0-t),80.4 ± 16.2 ng·h/mL
N[C@@H](C[18F])C(=O)O,PET imaging,"female athymic nude mice, U-87 MG xenograft","intravenous, 30 min",baseline: tumour over muscle,tumour-to-muscle ratio,1.43 ± 0.2
Cc1cc(C)c(CNC(=O)c2cc(Cl)c3c(c2C)O[C@@](C)([C@H]2CC[C@H](N(C)C)CC2)O3)c(=O)[nH]1,,human relapsed/refractory NHL,"oral, 200 mg once daily, onset after cycle 1 day 1",,acute respiratory failure grade ≥3,4.2%
O=C(N[C@H](Cc1c[nH]c2ccccc12)C(=O)Nc1ccncc1)c1ccc(-c2cc(C(F)(F)F)ccc2F)cc1F,,"Swiss Webster mouse, female, intestine","oral, 50 mg/kg, 8 h, 20% Kolliphor vehicle",,concentration,53.8 µM
COc1ccc([C@@H](O)c2cc(-c3ncnc4cc(N5CCOCC5)ccc34)c(F)cc2Cl)nn1,,locally advanced rectal cancer patients,"100 mg, together with: capecitabine and radiotherapy",,drug-related proctitis incidence,17%
CCc1c(-c2ccccc2)c(-c2ccccc2)nn1-c1ccccc1-c1cccc(OCC(=O)O)c1,,Sprague-Dawley rat,"oral, dose not given",,AUMC extrapolated observed,0.964% and 1.08% and 2.05%
CC(C)(C(=O)N1CCOc2c(C#N)cncc2C1)C(F)F,,"healthy humans, both sexes, plasma","oral, 20 mg single dose, 2-fold dose increase",baseline: 20 mg over 10 mg,AUClast dose proportionality ratio,2.11
C[C@H]1CN(C(=O)CC#N)[C@]12CCN(c1ncnc3[nH]ccc13)C2,,healthy human,"oral, 6 mg single",,subjects with Vomiting,12.5%
O=C(OC(C(F)(F)F)C(F)(F)F)N1CCN(Cc2cccc(Oc3ccccc3)c2)CC1,PET blocking study,"rhesus monkey, brain HIP","0.01 mg/kg, compound pretreatment, together with: [18F]T-401 tracer",,Ktrans,0.0013 min⁻¹
Cc1nc(-c2cnc(NC(C)C)n(C)c2=O)ccc1Oc1ccnc(-c2cnn(C)c2)c1,,"DBA/1 mouse, female, plasma","oral, 15 mg/kg, single dose",,apparent clearance,2 mL/min/kg
C[C@@H](Nc1cc(F)cc(F)c1)c1cc(C(=O)N(C)C)cc2c(=O)cc(N3CCOCC3)oc12,,advanced solid tumour patients,"oral, 30 mg twice daily, continuous monotherapy",,any dose reduction,25%
C[C@H]1Oc2cc(cnc2N)-c2c(nn(C)c2C#N)CN(C)C(=O)c2ccc(F)cc21,population PK,"patients with mild renal impairment, plasma","oral, 100 mg, median, single dose",,clearance,134 mL/min
CN(CCC(=O)O)C(=O)c1ccc2c(c1)CC[C@@H]1[C@@H]2CC[C@]2(C)C(c3cncc(F)c3)=CC[C@@H]12,,"premenopausal women with endometriosis pain, serum","60 mg twice daily, end of treatment, completers, mean",baseline: baseline,total bilirubin change,0.509 mg/dL
N[C@@H](CC(=O)O)C(=O)OC(C(=O)O)c1ccccc1[N+](=O)[O-].O=C(O)C(F)(F)F (mixture of isomers),"1H NMR, dark",50 mM sodium phosphate,"concentration not given, pH 7.0, room temperature, 12.5% DMSO-d6",,"hydrolysis half-life, B isomer",25.7 ± 0.6 h
CCc1nc(C(N)=O)c(Nc2ccc(N3CCC(N4CCN(C)CC4)CC3)c(OC)c2)nc1NC1CCOCC1,,"female FVB mice, wild-type, plasma","oral, 10 mg/kg, single dose",,Tmax,1 h
O=C(Nc1nc2cccc(-c3ccc(CN4CCS(=O)(=O)CC4)cc3)n2n1)C1CC1,item: dysgeusia,human rheumatoid arthritis patients,"oral, 75 mg once daily, 4 weeks, regardless of relatedness",,treatment-emergent adverse events,0%
OC[C@H]1O[C@@H](c2ccc(F)c(Cc3cc4ccccc4s3)c2)[C@H](O)[C@@H](O)[C@@H]1O,,"Japanese patients, type 1 diabetes","oral, 100 mg/day, onset day 3",baseline: patients,hypoglycaemia-related adverse event,6%
C[C@@H](c1nc(-c2ccc(C#N)cc2)cs1)[C@](O)(Cn1cncn1)c1cc(F)ccc1F,item: gastrointestinal disorders (SOC),humans,"oral, dose not given, together with: ketoconazole",,subjects with TEAEs,8.3%
CCCCOC(=O)N1CCN(C(=O)[C@H](CP(=O)(O)O)NC(=O)c2cc(N3CC[C@H](OC)C3)nc(-c3ccccc3)n2)CC1,,human,"subcutaneous, 8 mg, 24 h post-dose",baseline: baseline,change in QT interval,-3.7 ± 24.2 ms
CNC(=O)c1cc(Oc2ccc(NC(=O)Nc3cc(C(C)(C)C)nn3-c3ccc4ncccc4c3)c(F)c2)ccn1,,human,"oral, dose not given, cycles 1 and 2, High AUC(0-4 h) subgroup",,patients with any AE of special interest,89%
N#Cc1ccc2c(c1)[C@H]1CCCN(C(=O)c3ccc4[nH]cnc4c3)[C@H]1C2,,human females,"240 mg, end of trial",,SHBG level,41.5 nmol/L
O=C(Nc1ccc(OC(F)(F)Cl)cc1)c1cnc(N2CC[C@@H](O)C2)c(-c2ccn[nH]2)c1,"per laboratory record, item: triglyceride increase",human patients,"oral, dose not given, dose-finding study",,any-grade event rate,32.6%
CCc1nn(C)c2nc(-c3ccc(C(=O)O)cc3)nc(NCc3ccc(F)cc3)c12,,NSG mice,"dose not given, day 2 of treatment",,body weight,19.9 g and 20.6 g and 19.7 g and 21.8 g
C=CCN1CC(=O)N2[C@@H](Cc3ccc(O)cc3F)C(=O)N(Cc3cccc(N4CC(N5CCN(CC)CC5)C4)n3)C[C@@H]2N1C(=O)NCc1ccccc1,,advanced solid tumour patients,"oral, 45 mg twice daily, grade ≥3, dose-escalation",,treatment-related vomiting,0%
O=C(O)CCCOc1ccc([18F])cc1-c1cc(-c2ccccc2C(F)(F)F)n(-c2ccccc2)n1,gamma counting,"male ddY mice, liver","intravenous, 2.1 MBq, 1 min",,radioactivity uptake,1.88 ± 0.89 SUV
Cc1ccc([C@@H]2O[C@H](CO)[C@@H](O)[C@H](O)[C@H]2O)cc1Cc1ccc(-c2ccc(F)cc2)s1,,Japanese type 2 diabetes patients,"200 mg, day 18, 24 h urine collection",baseline: baseline,urinary chloride excretion change,-22.1 mEq
